{"data": "Experimental data from different studies", "note": "Parts stem from different laboratories: compare values within a part only. Values joined by “and” are separate records of one study, mostly repeats; a detail may differ.", "chain of UniProt Q86YV6 (whole entry, looked up)": "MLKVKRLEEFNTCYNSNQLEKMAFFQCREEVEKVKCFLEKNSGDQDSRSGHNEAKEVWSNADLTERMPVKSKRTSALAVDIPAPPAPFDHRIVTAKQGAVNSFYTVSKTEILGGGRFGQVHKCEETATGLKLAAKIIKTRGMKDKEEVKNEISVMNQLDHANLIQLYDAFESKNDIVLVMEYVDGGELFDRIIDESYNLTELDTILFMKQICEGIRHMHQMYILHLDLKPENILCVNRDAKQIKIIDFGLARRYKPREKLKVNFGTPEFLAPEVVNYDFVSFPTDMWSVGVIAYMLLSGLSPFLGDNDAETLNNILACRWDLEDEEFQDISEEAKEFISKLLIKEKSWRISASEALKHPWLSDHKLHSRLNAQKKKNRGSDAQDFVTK", "chain of UniProt Q14004 (whole entry, looked up)": "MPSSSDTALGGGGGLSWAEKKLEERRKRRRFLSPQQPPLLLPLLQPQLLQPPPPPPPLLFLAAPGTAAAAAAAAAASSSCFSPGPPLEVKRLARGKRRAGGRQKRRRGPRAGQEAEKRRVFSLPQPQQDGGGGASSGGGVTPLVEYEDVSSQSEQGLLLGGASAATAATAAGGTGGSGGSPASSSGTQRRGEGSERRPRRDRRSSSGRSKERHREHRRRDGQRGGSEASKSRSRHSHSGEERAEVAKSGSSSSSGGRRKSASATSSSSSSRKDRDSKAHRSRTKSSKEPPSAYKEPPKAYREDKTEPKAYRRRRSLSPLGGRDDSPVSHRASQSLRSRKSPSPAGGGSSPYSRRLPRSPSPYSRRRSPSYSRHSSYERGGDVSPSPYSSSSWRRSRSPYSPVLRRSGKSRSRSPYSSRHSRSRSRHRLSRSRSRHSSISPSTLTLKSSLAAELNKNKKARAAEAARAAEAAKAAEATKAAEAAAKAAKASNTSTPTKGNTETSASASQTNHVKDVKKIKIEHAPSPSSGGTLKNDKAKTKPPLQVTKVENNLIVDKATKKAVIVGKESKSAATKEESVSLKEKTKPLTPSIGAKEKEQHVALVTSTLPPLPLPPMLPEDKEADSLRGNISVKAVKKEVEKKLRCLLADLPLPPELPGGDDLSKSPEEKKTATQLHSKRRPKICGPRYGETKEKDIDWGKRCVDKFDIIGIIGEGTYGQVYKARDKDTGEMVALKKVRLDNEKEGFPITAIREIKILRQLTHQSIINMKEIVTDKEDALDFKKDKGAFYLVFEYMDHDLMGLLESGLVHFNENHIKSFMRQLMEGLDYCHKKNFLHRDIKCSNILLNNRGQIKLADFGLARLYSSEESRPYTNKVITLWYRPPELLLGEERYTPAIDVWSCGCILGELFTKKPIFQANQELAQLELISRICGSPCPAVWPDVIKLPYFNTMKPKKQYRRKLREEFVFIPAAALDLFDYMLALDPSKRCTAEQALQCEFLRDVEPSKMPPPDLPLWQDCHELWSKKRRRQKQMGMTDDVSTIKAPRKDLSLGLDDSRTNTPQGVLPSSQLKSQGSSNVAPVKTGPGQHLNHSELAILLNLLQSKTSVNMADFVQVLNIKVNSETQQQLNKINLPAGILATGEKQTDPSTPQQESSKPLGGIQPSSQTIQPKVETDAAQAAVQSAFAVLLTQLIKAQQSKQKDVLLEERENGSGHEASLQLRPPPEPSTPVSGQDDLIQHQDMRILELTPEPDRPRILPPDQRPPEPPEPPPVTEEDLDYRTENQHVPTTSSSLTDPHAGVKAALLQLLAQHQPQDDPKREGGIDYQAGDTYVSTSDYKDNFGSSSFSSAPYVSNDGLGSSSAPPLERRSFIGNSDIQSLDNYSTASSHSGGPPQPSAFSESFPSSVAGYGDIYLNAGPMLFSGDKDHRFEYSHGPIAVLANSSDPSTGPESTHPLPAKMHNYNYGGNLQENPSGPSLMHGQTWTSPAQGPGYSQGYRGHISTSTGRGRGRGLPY", "chain of UniProt P36896 (whole entry, looked up)": "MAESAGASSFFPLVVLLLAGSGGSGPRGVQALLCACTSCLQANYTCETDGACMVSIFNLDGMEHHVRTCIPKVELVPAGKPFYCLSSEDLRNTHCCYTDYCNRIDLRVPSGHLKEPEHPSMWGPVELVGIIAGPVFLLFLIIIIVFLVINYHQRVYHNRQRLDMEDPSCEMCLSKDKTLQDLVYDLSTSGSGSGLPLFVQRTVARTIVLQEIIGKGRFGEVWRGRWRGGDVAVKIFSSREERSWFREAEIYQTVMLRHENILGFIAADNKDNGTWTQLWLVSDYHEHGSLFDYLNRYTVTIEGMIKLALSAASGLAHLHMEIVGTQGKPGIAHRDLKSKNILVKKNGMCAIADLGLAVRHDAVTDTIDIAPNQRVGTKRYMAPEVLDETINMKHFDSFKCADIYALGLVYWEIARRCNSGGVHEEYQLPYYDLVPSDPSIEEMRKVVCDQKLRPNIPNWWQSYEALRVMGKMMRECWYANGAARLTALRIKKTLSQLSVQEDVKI", "chain of UniProt P00519 (whole entry, unmodified, looked up)": "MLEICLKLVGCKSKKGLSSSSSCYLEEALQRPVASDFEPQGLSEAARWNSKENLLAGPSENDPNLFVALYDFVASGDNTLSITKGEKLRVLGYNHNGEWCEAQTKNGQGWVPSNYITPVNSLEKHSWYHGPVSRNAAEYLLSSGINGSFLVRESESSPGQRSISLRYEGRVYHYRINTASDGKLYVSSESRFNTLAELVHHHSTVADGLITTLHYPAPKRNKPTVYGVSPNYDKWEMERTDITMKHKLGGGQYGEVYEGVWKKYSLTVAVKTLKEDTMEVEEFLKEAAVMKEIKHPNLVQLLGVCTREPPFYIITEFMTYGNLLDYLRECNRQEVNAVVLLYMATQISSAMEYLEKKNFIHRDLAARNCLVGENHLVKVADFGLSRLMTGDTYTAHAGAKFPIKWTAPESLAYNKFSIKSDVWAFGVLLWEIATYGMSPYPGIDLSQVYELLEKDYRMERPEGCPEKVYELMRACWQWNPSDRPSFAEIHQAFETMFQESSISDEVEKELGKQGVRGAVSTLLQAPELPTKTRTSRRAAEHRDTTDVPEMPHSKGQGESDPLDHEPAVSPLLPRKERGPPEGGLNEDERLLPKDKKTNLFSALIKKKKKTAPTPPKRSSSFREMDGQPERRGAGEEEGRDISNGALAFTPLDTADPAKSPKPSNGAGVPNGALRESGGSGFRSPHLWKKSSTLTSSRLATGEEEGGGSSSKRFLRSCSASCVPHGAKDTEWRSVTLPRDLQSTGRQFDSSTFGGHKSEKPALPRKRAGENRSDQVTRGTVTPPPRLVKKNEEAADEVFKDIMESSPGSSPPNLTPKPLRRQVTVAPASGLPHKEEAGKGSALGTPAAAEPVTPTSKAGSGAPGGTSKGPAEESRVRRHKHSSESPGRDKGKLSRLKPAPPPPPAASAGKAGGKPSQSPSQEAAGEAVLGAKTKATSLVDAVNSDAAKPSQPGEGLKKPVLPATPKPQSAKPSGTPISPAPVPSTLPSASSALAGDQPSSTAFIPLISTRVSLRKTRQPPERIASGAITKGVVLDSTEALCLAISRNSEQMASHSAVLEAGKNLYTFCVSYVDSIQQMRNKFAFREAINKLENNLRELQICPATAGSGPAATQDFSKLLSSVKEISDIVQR", "chain of UniProt O75716 (whole entry, looked up)": "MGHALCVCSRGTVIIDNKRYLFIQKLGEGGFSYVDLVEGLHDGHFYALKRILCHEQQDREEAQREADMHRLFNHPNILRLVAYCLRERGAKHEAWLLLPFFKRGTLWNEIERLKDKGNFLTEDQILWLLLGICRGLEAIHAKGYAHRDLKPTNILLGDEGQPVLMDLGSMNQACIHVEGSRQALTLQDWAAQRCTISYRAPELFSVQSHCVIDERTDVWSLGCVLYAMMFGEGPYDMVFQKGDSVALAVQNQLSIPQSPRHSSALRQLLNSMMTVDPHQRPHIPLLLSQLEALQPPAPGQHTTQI", "chain of UniProt Q52WX2 (whole entry, looked up)": "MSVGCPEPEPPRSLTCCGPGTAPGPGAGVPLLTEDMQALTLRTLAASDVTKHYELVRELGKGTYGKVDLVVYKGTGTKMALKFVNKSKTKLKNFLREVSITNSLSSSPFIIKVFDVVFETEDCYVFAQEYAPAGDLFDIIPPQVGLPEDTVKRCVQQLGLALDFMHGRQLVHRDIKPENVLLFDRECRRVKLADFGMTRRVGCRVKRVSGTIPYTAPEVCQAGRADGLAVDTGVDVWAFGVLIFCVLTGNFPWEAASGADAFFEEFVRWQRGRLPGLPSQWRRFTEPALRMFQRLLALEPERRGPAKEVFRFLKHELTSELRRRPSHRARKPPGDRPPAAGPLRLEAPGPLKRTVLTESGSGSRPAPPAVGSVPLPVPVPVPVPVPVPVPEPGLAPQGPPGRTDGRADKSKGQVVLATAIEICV"}
{"data": "Series 1", "SMILES": "CC(C)n1cnc(-c2ccc(F)cc2)c1-c1ncc(C(=O)Nc2ccc(N3CCN(C)CC3)cc2)[nH]1", "technique": "phase 2a trial", "species": "idiopathic pulmonary fibrosis patients"}
{"dose": "30 mg once daily", "notes": "adverse event grade 3", "patients with coagulopathy [%]": 0}
{"dose": "dose not given", "notes": "adverse event grade 5, all dose arms pooled", "patients with coagulopathy [%]": 0}
{"dose": "dose not given", "notes": "adverse event grade 2, all dose arms pooled", "patients with coagulopathy [%]": 0}
{"data": "Series 2", "target": "NUAK family SNF1-like kinase 2 (NUAK2, Homo sapiens, UniProt Q9H093)", "observed": "enzyme activity", "mode": "inhibitor", "tested at": "0.5 µM", "baseline": "control", "chain of UniProt Q9H093 (whole entry, looked up)": "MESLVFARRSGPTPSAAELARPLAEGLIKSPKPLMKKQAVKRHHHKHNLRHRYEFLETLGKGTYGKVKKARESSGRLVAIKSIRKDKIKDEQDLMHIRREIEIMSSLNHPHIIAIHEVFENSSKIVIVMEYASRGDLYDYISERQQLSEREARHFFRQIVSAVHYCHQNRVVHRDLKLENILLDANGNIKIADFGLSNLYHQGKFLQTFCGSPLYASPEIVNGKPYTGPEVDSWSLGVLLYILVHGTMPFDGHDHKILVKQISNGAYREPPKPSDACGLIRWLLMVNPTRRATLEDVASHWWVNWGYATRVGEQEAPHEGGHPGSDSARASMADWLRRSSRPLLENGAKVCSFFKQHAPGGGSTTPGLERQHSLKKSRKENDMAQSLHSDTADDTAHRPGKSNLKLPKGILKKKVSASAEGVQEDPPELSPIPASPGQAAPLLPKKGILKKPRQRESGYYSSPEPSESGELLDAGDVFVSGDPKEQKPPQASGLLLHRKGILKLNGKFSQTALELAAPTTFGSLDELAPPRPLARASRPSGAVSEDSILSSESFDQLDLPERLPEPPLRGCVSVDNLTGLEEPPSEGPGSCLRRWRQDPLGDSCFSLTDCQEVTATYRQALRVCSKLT"}
{"SMILES": "Cc1cccc(-c2[nH]c(C(C)(C)C)nc2-c2ccc3c(c2)OCO3)n1", "remaining activity [%]": 138}
{"SMILES": "N#CC(C#N)=C(N)/C(C#N)=C/c1ccc(O)cc1", "remaining activity [%]": 122}
{"SMILES": "Cc1ccc(Nc2nccc(N(C)c3ccc4c(C)n(C)nc4c3)n2)cc1S(N)(=O)=O", "remaining activity [%]": 93.8}
{"SMILES": "COc1cc2ncnc(Nc3ccc(Oc4ccccc4)cc3)c2cc1OC", "remaining activity [%]": 137}
{"SMILES": "OCC(O)CCON=C1C(c2c(O)[nH]c3ccccc23)=Nc2ccccc21 (stereo not drawn)", "remaining activity [%]": 55.1}
{"SMILES": "COc1ccc(C(=O)Nc2sc3c(c2C(N)=O)CCCC3)cc1OC", "remaining activity [%]": 99.5}
{"SMILES": "O=C(O)c1ccc2c3c1cccc3c(=O)n1c3ccccc3nc21", "remaining activity [%]": 122}
{"SMILES": "COc1cc2nccc(Oc3ccc(NC(=S)NC(=O)c4ccccc4C)cc3)c2cc1OC", "remaining activity [%]": 106}
{"SMILES": "O=C(Nc1cccc(Nc2cc(Nc3cccc(C(F)(F)F)c3)ncn2)c1)C1CC1", "remaining activity [%]": 103}
{"SMILES": "Cc1ccc(NC(=O)c2ccc(CN3CCN(C)CC3)cc2)cc1Nc1nc(-c2cccnc2)cs1", "remaining activity [%]": 98.4}
{"SMILES": "O=C1NC(=O)C(c2cn(CCCO)c3ncccc23)=C1c1cnccn1", "remaining activity [%]": 92.3}
{"SMILES": "O=c1c2ccccc2[nH]c(=S)n1CCN1CCC(=C(c2ccc(F)cc2)c2ccc(F)cc2)CC1", "remaining activity [%]": 106}
{"SMILES": "O=C(CCCc1ccc(-c2ccccc2F)cc1)Nc1ccc(O)cc1", "remaining activity [%]": 92.9}
{"SMILES": "NCCNc1ncc(C(N)=O)c(Nc2cccc(C(F)(F)F)c2)n1", "remaining activity [%]": 137}
{"SMILES": "COc1ccc(CNC(=O)Nc2ncc([N+](=O)[O-])s2)cc1", "remaining activity [%]": 89.9}
{"data": "Series 3", "SMILES": "CC(C)(O)c1cncc(-c2nc3ccc(F)cc3n2C2CC2)c1", "tested at": "1 µM"}
{"target": "Ribosomal protein S6 kinase alpha-2, N-terminal kinase domain (RPS6KA2, Homo sapiens, UniProt Q15349)", "observed": "cell-free assay", "technique": "competition with immobilised ligand", "remaining binding": "100%"}
{"target": "MAP3K3 (Homo sapiens, UniProt Q99759)", "observed": "cell-free assay", "technique": "competition with immobilised ligand", "remaining binding": "99%"}
{"target": "WEE1 (Homo sapiens, UniProt P30291)", "observed": "cell-free assay", "technique": "competition with immobilised ligand", "remaining binding": "72%"}
{"target": "MELK (Homo sapiens, UniProt Q14680)", "observed": "cell-free assay", "technique": "competition with immobilised ligand", "remaining binding": "100%"}
{"target": "SBK1 (Homo sapiens, UniProt Q52WX2)", "observed": "cell-free assay", "technique": "competition with immobilised ligand", "remaining binding": "100%"}
{"target": "MARK4 (Homo sapiens, UniProt Q96L34)", "observed": "cell-free assay", "technique": "competition with immobilised ligand", "remaining binding": "100%"}
{"target": "CSNK1A1L (Homo sapiens, UniProt Q8N752)", "observed": "cell-free assay", "technique": "competition with immobilised ligand", "remaining binding": "100%"}
{"target": "AAK1 (Homo sapiens, UniProt Q2M2I8)", "observed": "binding", "remaining binding": "100%"}
{"target": "ACVR1B (Homo sapiens, UniProt P36896)", "observed": "cell-free assay", "technique": "competition with immobilised ligand", "remaining binding": "99%"}
{"target": "NEK3 (Homo sapiens, UniProt P51956)", "observed": "cell-free assay", "technique": "competition with immobilised ligand", "remaining binding": "100%"}
{"target": "CDK13 (Homo sapiens, UniProt Q14004)", "observed": "cell-free assay", "technique": "competition with immobilised ligand", "remaining binding": "96%"}
{"target": "Tyrosine-protein kinase ABL1, non-phosphorylated (ABL1, Homo sapiens, UniProt P00519, F317L)", "observed": "cell-free assay", "technique": "competition with immobilised ligand", "remaining binding": "100%"}
{"target": "STK16 (Homo sapiens, UniProt O75716)", "observed": "cell-free assay", "technique": "competition with immobilised ligand", "remaining binding": "100%"}
{"target": "CDC42BPB (Homo sapiens, UniProt Q9Y5S2)", "observed": "cell-free assay", "technique": "competition with immobilised ligand", "remaining binding": "100%"}
{"target": "MYLK4 (Homo sapiens, UniProt Q86YV6)", "observed": "cell-free assay", "technique": "competition with immobilised ligand", "remaining binding": "100%"}
{"target": "STK36 (Homo sapiens, UniProt Q9NRP7)", "observed": "cell-free assay", "technique": "competition with immobilised ligand", "remaining binding": "93%"}
{"target": "STK10 (Homo sapiens, UniProt O94804)", "observed": "cell-free assay", "technique": "competition with immobilised ligand", "remaining binding": "100%"}
{"data": "Other studies, line by line"}
{"Compound": "CNC(=O)c1ccc(-c2cnn3ccc(C(=O)N(CC(=O)O)c4ccc(Cl)cc4)cc23)cc1", "species": "female C57BL/6 IFN-γ-knockout mice", "medium": "plasma", "route": "oral", "dose": "10 mg/kg", "time": "1 h", "endpoint": "plasma concentration", "value": "0.011 µM and 0.053 µM and 0.085 µM"}
{"note": "Some of these lines once more (series 3):"}
{"target": "Ribosomal protein S6 kinase alpha-2, N-terminal kinase domain (RPS6KA2, Homo sapiens, UniProt Q15349)", "observed": "cell-free assay", "technique": "competition with immobilised ligand", "remaining binding": "100%"}
{"target": "STK10 (Homo sapiens, UniProt O94804)", "observed": "cell-free assay", "technique": "competition with immobilised ligand", "remaining binding": "100%"}
{"target": "MELK (Homo sapiens, UniProt Q14680)", "observed": "cell-free assay", "technique": "competition with immobilised ligand", "remaining binding": "100%"}
{"target": "STK36 (Homo sapiens, UniProt Q9NRP7)", "observed": "cell-free assay", "technique": "competition with immobilised ligand", "remaining binding": "93%"}
{"target": "CSNK1A1L (Homo sapiens, UniProt Q8N752)", "observed": "cell-free assay", "technique": "competition with immobilised ligand", "remaining binding": "100%"}
{"target": "STK16 (Homo sapiens, UniProt O75716)", "observed": "cell-free assay", "technique": "competition with immobilised ligand", "remaining binding": "100%"}
